Measured values collected from several papers.
Each numbered part is a random draw from the data of one study; scales do not carry over between parts.

Block 1
Target: Histone acetyltransferase KAT6A, winged helix 1, GST fusion (KAT6A, Homo sapiens, UniProt Q92794, residues 1-85)
Method: protein binding microarray
Molecule type: double-stranded DNA, one strand shown
Medium: in vitro
Tested at: not given
Notes: 8-mer, flanks averaged, mean of 2 arrays, mostly near background
Relative to: not given
Reading: higher = stronger binding
Target sequence (chain): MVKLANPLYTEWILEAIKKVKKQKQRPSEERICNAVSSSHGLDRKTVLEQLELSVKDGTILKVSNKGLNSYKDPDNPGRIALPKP
Strand	E-score
CACGTTCA	-0.0497
AGGCGAAG	-0.119
CTTATTTA	-0.115

Block 2
Target: Centromere-binding protein 1, full length, N-terminal tag (CBF1, Saccharomyces cerevisiae, UniProt P17106, residues 1-351)
Sequence of UniProt P17106 (whole entry, looked up): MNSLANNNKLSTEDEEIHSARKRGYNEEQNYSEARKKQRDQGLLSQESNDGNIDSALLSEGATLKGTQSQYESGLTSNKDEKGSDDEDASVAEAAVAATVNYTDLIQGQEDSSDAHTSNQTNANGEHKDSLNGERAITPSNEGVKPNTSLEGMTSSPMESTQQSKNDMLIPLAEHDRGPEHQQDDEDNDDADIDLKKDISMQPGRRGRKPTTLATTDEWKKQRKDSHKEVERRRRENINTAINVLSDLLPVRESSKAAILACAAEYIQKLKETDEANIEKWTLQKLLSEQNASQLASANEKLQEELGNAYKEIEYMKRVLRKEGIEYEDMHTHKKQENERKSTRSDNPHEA
Method: protein-binding microarray
Molecule type: double-stranded DNA, one strand shown
Medium: in vitro
Tested at: 0.8 µM
Notes: whole 60-bp probe, no competitor
Reading: higher = stronger binding
Strand	fluorescence intensity
CTATCAACATCTTGTGACCTGATGATTTTCCTCTTCGTCTTGATTCGCTTGACGCTGCTG	947 a.u.
GAATTGAATATTCATGTCACGACCCACTGCCTGTAGGTCTTGATTCGCTTGACGCTGCTG	1190 a.u.
CTAAAAAAGTATAATCACGTTAATCAAGGCTGCTTCGTCTTGATTCGCTTGACGCTGCTG	777 a.u.
GAATCCTTGTTTGCTGGTGTCACTTGGCTCGACTAGGTCTTGATTCGCTTGACGCTGCTG	541 a.u.

Block 3
Target: Interferon regulatory factor 3, full length, phosphomimetic (IRF3, Homo sapiens, UniProt Q14653, residues 1-427, S386D/S396D/S398D/S402D/T404D/S405D)
Method: protein-binding microarray
Molecule type: double-stranded DNA, one strand shown
Medium: in vitro
Tested at: 2540 nM top
Notes: 60-bp whole probe
Together with: salmon DNA 0.4 mg/ml
Relative to: random background probes
Reading: higher = stronger binding
Residues (chain): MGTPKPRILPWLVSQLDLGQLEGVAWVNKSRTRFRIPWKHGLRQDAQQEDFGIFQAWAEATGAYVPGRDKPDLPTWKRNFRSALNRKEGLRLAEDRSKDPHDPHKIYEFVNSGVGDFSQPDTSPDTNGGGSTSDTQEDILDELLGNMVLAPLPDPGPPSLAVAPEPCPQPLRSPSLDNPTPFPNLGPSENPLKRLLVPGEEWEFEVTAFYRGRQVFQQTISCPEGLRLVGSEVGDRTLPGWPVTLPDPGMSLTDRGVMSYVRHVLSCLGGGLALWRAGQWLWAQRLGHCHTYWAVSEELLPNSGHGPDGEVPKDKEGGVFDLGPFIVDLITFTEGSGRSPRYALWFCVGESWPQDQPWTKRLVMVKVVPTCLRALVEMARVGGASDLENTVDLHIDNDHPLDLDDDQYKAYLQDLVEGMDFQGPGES
Strand	fitted relative affinity
GCCTAGCACCCGCATATCGGGGTGCGCCCGGTGCTAGTCTTGATTCGCTTGACGCTGCTG	-0.445 z-score
GCCTAGCACGCTCCTTTTAATTTTTAACGGTGCTAGGTCTTGATTCGCTTGACGCTGCTG	5.01 z-score
GCCTAGCACTTAGATATCGGGTTTCGATTCGTGCTAGTCTTGATTCGCTTGACGCTGCTG	3.17 z-score

Other studies, line by line
Molecule	target	assay	test system	setting	how to read	endpoint	value
PhoQ, residues 284 288 289 292 302 303 NLALSC	PhoP, residues 12 14 15 18 19 VQGLL (Escherichia coli, UniProt P23836)	Sort-seq, item: YFP reporter	E. coli	PhoQ-PhoP variant library, together with: 10 µM Mg2+	relative to: high Mg2+ state, higher = stronger signaling	fold induction	1.92
